Measurements pooled from the literature.
Compare with care: the assays were run in different laboratories.

Substance | target or system | test | test system | setting | how to read | endpoint | result
RSKRGNRYQRL | Escherichia coli | bacterial survival, plate count | peptide | 20 µM, 4 h, room temperature | reference: untreated control | bacterial killing | 55.1%
Polymyxin B | Escherichia coli | broth microdilution, MH medium | carbapenem-resistant NCCP 16046 | 16 h, 37 °C | – | MIC | 2 µM
KYKKSKNGY | Escherichia coli | bacterial survival, plate count | peptide | 20 µM, 4 h, room temperature | reference: untreated control | bacterial killing | 15%
gramicidin D | Escherichia coli | – | tetracycline-resistant | 20 µM, with: tetracycline | – | FIC index | 1
ILPWMWPWWPWRR | Escherichia coli | – | peptide, K-12 MG1655, Mueller-Hinton broth | concentration not given, 37 °C, unit not given | reference: no peptide | growth rate | 0.147
benzalkonium chloride | Escherichia coli | bacterial survival, bioluminescence | bioluminescent | 1 h, dark | – | IC50 | 19.7 µM
polymyxin B | Escherichia coli | – | ATCC BAA-2452, NDM-1 | – | – | MIC | 0.7 µg/mL
Polymyxin B | Escherichia coli | broth microdilution | E24 clinical isolate | 20 h | – | MIC | 2 µg/mL
SAISFWLSIGLIK | Escherichia coli | bacterial growth, OD600 growth curve | peptide, K12 MG1655, MHB broth | 40 µM, 24 h, 37 °C | reference: no peptide control | relative growth rate | 0.404
RWRYRRRGYLAMG | Escherichia coli | bacterial survival, plate count | peptide | 20 µM, 4 h, room temperature | reference: untreated control | bacterial killing | 25.6%
ILPWSWPWWPWRR | Escherichia coli | – | peptide, K-12 MG1655, Mueller-Hinton broth | concentration not given, 37 °C, unit not given | reference: no peptide | growth rate | 0.229
colistin | Escherichia coli | – | 1191008, multidrug-resistant | – | – | MIC | 0.25 µg/mL
ILPWQWPWWPWRR | Escherichia coli | – | peptide, K-12 MG1655, Mueller-Hinton broth | concentration not given, 37 °C, unit not given | reference: no peptide | growth rate | 0.189
insulin human | – | refers to: ASS1 mRNA | uninfected mouse, brain | i.p., dose not given | reference: PBS | fold change | 0.979
ILSAAWSGILSLF | Escherichia coli | bacterial growth, OD600 growth curve | peptide, K12 MG1655, MHB broth | 40 µM, 24 h, 37 °C | reference: no peptide control | relative growth rate | 0.0453
colistin | Escherichia coli | broth microdilution | mcr-1 resistant isolate | – | – | MIC | 2 µg/mL

A few entries again:
Substance | target or system | test | test system | setting | how to read | endpoint | result
RSKRGNRYQRL | Escherichia coli | bacterial survival, plate count | peptide | 20 µM, 4 h, room temperature | reference: untreated control | bacterial killing | 55.1%
ILPWSWPWWPWRR | Escherichia coli | – | peptide, K-12 MG1655, Mueller-Hinton broth | concentration not given, 37 °C, unit not given | reference: no peptide | growth rate | 0.229
